# Results from different studies.
# A part holds a random share of what one study measured.

# Block 1
# Target: Interferon regulatory factor 7, full length, phosphomimetic (IRF7, Homo sapiens, UniProt Q92985, residues 1-503, S471D/S472D/S475D/S476D/S477D/S483D/S484D/S487D)
# Sequence of UniProt Q92985 (whole entry, unmodified, looked up): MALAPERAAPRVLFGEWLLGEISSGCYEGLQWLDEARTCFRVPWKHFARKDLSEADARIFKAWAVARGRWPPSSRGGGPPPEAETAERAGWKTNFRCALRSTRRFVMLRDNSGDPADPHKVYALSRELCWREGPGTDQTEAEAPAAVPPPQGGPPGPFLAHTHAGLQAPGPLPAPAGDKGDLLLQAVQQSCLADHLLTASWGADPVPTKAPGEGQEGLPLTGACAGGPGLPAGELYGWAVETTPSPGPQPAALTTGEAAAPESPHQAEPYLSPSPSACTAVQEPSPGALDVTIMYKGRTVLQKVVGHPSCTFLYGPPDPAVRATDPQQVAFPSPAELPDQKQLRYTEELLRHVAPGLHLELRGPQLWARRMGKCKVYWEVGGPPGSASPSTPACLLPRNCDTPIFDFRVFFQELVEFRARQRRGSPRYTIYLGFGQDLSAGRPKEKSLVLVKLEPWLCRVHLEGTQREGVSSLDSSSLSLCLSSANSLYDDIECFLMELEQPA
# Technique: protein-binding microarray
# Molecule type: double-stranded DNA, one strand shown
# Matrix: in vitro
# Concentration: 2200 nM top
# Setting: 60-bp whole probe
# With: salmon DNA 0.4 mg/ml
# Relative to: random background probes
# Reading: higher = stronger binding
# Constant ends, left off below: GCCTAGCAC … GTCTTGATTCGCTTGACGCTGCTG
Sequence,fitted relative affinity
TATAGTTATTTTTATTAAAAGTGCTAG,-0.123 z-score
TTCATTTTGTTCATCATTGCGTGCTAG,1.79 z-score
TCACGGATGATCTCTCTGACTGTGCTA,0.388 z-score
GATGAAGATGTAGAACTTTTGTGCTAG,-0.431 z-score
TCAAGACTTTCTTTCAAACTGTGCTAG,0.256 z-score
TCATCTTTCATTGCTGCACTGTGCTAG,1.88 z-score
CCCACTTTCACTTCTCCCTTGTGCTAG,11.6 z-score
TTAGGACTCGGTATCGGTTAGTGCTAG,0.83 z-score
GACGGACTGCTTCTCCTGAGGTGCTAG,-0.000889 z-score
GGAAATATTTACCTCTCACGGTGCTAG,0.495 z-score
TTAGGTATCGGTATTGGTTAGTGCTAG,0.746 z-score
GACGGTTGCGACTATCGGGACGTGCTA,-0.129 z-score
TGAGGTTCCCTTTTCCTTTAGTGCTAG,2.65 z-score
CCCAGGGTCTGTTTGGGTCTGTGCTAG,-1.19 z-score
TTAGATCTCAGTCTCGATGAGTGCTAG,-0.00664 z-score
TTAGGTTTCGACTAACGGTTAGTGCTA,2.88 z-score
TCATTTTTTTTTTTTTCACTGTGCTAG,2.33 z-score
TCAATTATGAGTCTTGAACTGTGCTAG,-0.208 z-score
TCAGGTTTTTTTTTAATACTGTGCTAG,0.41 z-score
CACGGTATCGGACTGGGGACGTGCTAG,-0.18 z-score
TTAGGTTTCGACTTTAGGTTAGTGCTA,5.01 z-score
TTAGGTCTCCTTCTCCTTTAGTGCTAG,1.04 z-score
GACGATATCAGTCTCGGGACGTGCTAG,0.191 z-score
GACGGTATCCTTCTCCCGACGTGCTAG,1.04 z-score

# Block 2
# Target: Ras GTPase-activating protein-binding protein 1, C-terminal RGG region (G3BP1, Homo sapiens, UniProt Q13283)
# Sequence of UniProt Q13283 (whole entry, looked up): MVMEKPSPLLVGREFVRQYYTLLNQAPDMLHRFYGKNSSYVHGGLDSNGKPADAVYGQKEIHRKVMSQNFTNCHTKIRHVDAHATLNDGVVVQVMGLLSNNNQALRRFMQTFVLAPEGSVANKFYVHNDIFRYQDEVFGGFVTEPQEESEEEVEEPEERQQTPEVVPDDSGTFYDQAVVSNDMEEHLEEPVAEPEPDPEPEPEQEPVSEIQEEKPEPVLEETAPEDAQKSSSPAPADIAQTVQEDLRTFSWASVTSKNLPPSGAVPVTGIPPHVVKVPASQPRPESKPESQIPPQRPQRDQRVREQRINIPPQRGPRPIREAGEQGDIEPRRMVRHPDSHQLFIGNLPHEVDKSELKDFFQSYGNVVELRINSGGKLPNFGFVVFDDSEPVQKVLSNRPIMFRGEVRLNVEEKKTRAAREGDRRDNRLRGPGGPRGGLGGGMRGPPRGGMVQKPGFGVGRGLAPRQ
# Technique: RNA Bind-n-Seq
# Molecule type: RNA
# Matrix: in vitro
# Concentration: 1 µM
# Setting: whole 134-nt RNA, ends assumed
# With: 150 mM KCl
# Relative to: input library
# Reading: higher = stronger binding
# Constant ends, left off below: GGGAGUUCUACAGUCCGACGAUC … UGGAAUUCUCGGGUGUCAAGG
Sequence,log2 enrichment
GCAAAAAGUAAAAACAAAUGGAAAUGCUUCGGAUAGUGGCAGGGGUGGGGGUUGCUAAGGAAAGGGUGGGAUGGGAGUGGGUAAAGAGUU,1.7
UGUGCUACACAUCGUAUGUACCGAAUCGGGCCCCCCCGGGGCCCCCCCGGGGCCCCCCCGGGGAAAGUAUUAUGUUACGCCGUUCGGAUC,-2.68
CUCAAGUCCUGUGCUACACAUCGUAUGUACCGAAUCGGAGGUUUGGUUUUUGGAAAGUAUUAUGUUACGCCGUUCGGAUCUGCACUUCCA,-1.11
AGUCCUGUGCUACACAUCGUAUGUACCGAAUCGGCCCCCGGGCCCCCGGGGCCCCCGGAAAGUAUUAUGUUACGCCGUUCGGAUCUGCAC,-2.01
CAAGUCCUGUGCUACACAUCGUAUGUACCGAAUCGGGAGGGAAAGGGAAAAAGGGAAAGUAUUAUGUUACGCCGUUCGGAUCUGCACUUC,1.34
AAGUCCUGUGCUACACAUCGUAUGUACCGAAUCGGUUUGGUUUUUUUGGUUUUUGGAAAGUAUUAUGUUACGCCGUUCGGAUCUGCACUU,-1.79
CACAGACAACACGCACCCACACAGACACAGAGGGAAGGGGUUGGGAUGGGGACAGGGUGCACUGCAGGGCGGGGUAGGACCCCAGCCCCU,-0.647
CUCAAGUCCUGUGCUACACAUCGUAUGUACCGAAUCGGGAAGGGAAGGGGAAGGAAAGUAUUAUGUUACGCCGUUCGGAUCUGCACUUCC,-0.537
CCUGUGCUACACAUCGUAUGUACCGAAUCGGGUUUUUGGGUUUUUUUGGGAAAAAAAGGGAAAGUAUUAUGUUACGCCGUUCGGAUCUGC,-1.92
ACCAUGCAGGUGGGCAUCUUUGGGAAGUGGGGCAAGGGGGGGAUAGGGAGGGGGGUAACACUUUGGGAACAGGUAAACCCAGGUCGUUUC,-0.883

# Block 3
# Target: RNA binding protein fox-1 homolog 2, RRM domain, GST-SBP tag (RBFOX2, Homo sapiens, UniProt O43251-10, residues 100-194)
# Technique: RNA Bind-n-Seq
# Molecule type: RNA
# Matrix: in vitro
# Concentration: 365 nM
# Setting: natural RNA segment, single round, ends assumed
# Relative to: no-protein control
# Reading: higher = stronger binding
# Constant ends, left off below: GGGAGUUCUACAGUCCGACGAUC … UGGAAUUCUCGGGUGCCAA
# Construct (chain): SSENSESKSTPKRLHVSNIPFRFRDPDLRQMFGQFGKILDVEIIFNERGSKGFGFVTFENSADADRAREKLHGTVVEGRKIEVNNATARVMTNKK
Sequence,RBNS enrichment (R)
CACACACAGCAGGGCACUUGUUCUGCCUCAGGCUGCAUCUACUCAGUGCCGUUAAUAAACUUUAGAUACAAACCAACAACCACCAUUCUCCAGUAUACUACAGUGGGAAU,0.531
ACUGAGUUACAUCUCCAUCCUGUAACUGAUCUUUGAGCUUGGUCAUCAGGCCCUUAAUUAUGGCAGAGAGGUAAUCAGCUGGCUACAGCCAGGAUGCUCAGCAUUGGAAG,0.265
ACAGCCCUGCGCAGUGGGGCAGGGAGGGAGGGAGAAGCAAUGGUGCCCUUCCUGCUGGAGAGACAAGCAGCAGUAGCGCAGCGCCCGCCCGCCAUGUGCAGGAGCUGGCG,1.44
GCAAUAUGCACUACUCCCGACAUAAGUUCUCCAUGGAGACUCUGCAUUGUAAUGCCCACCAACAUCCCAUCAAAGACAUAUAAUGUGCUGUAGUCCACAUUUUAACACUC,1.07
AAAUCCCUUGGCCGCACUUUUAAGGUUUUUUUAUAUGUGUAUAGUUACCAACCUAAAAAUAAAAAAUCCGAACAGCAUACUUGAAGAAUGUAAUACUCAAACUCUCAGUG,2.46
GACUAGGGAGAGGCUUAGAUACUUUAGUGUAUUUAAAGAGCAUUUCAGUUAACUUUUUCAGCUAUUUUUAAAGUUUGUGAAUGGAGUGUUAUUUUGGACAUUCUUAAAUA,0.893
GUAGCAGUUGUCAUAGACUAAUCAUAAAAUAUUUUGCACAAAAUUUCAAUGUUGAACUUGCACUUACUGUUGUUAUAGUAAAUUAUAAAUCACAGCUUCUAGCUAGGCCA,0.393
UCUUCUCUCCAAAGUAAAAUUAGAUUAUUUAUAACUUCGAUCGCCUCGGCUAGGUUUCCAAGUCACUGAUUUCUGCUGAAGAUUUUACUACGUUGUUGCACAAUUUUAAG,0.491
UGUGCCACCUCCCCUAUGAGUGACGUGUUUGAUCACUAGCAGAAUAGCAAGCAGAGUAUCAUUCAUGCUGGGGCCAGAAUGAUGGCCGGUUGCCAGAUAUAACUGCUUUG,0.528
GGCUUUUUCAUUGAGGGCCUAAAGUAAUCGCGCUAAGAAUAAAGGGAAAACGGCGUCGCCCUCAUUUCAACCCCACUCCUACCCCCUUCCUCAACCCCCAAACAAAACAA,0.419
GCCCAGAGUUAAAGUUUCAGAAGAGACUUGUGCACAUAAGGGCUUCAUCUCAAGUGUAUUGCAGUAAUGGCUGAAUCGGGGUUAACAUCCCUUCCAGGCACAGCGAGUUG,0.346
UUCUCUCUUCAAUUAAGGAAUUUUCAUAAUGGAAUGGUUUAAAUUGAAGUGAUAAAGAAUAUUAUUAGAAUAAAAUGUUUGUAUAUGUAUUUGUGUAUUAAAGAUGUAUU,1.38

# Block 4
# Target: Centromere-binding protein 1, full length, N-terminal tag (CBF1, Saccharomyces cerevisiae, UniProt P17106, residues 1-351)
# Sequence of UniProt P17106 (whole entry, looked up): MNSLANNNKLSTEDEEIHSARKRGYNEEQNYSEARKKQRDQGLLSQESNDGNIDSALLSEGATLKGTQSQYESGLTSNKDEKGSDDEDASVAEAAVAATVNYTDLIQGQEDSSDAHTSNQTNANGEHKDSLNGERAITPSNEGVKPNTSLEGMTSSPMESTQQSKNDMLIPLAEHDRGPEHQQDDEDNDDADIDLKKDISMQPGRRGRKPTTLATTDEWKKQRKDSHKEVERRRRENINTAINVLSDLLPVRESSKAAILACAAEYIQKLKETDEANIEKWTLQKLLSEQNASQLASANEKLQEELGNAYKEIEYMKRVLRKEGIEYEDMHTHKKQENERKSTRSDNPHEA
# Technique: protein-binding microarray
# Molecule type: double-stranded DNA, one strand shown
# Matrix: in vitro
# Concentration: 0.8 µM
# Setting: whole 60-bp probe, no competitor
# Reading: higher = stronger binding
# Constant ends, left off below: … GTCTTGATTCGCTTGACGCTGCTG
Sequence,fluorescence intensity [a.u.]
CTAGTGCAGGTGACGCACGAACTTCTTAGAATGTTC,1100
CTAATGCGTACCGCTTCTCAGCTGTTCTTGCCGTTC,527
GAATACGTATTAACTCACCAGACTACAATAGTATAG,548
GAAGGCGGGGCAAACGTGATGGCGCTTGCTATTTAG,611
GAAAGCTGTTACAAACACATCACGGGCCACCGGTAG,1150
CTAAAGTGAAGCAATCAGTTGAGAGTGTAGCTATTC,486
CTAAGTTCTTTTATCCTGATGACTTTTTCTCATTTC,503
GAATTGCTATAGCGTAACGTGCGTCACTAGTCTTAG,576
GAATGATAATGTGAACACGTCATCATAGATGGTTAG,570
GAAACAAACCGCCGTCACGATGAGGCAGGTGTCTAG,606
GAAAAACAATGGCATCATGAAACGCTCATTGGATAG,498
CTATCATCGTATATTTCCGTGATTGCTCCTTTCTTC,541
CTATACTGATCAGGTGATGAGACGATAAAAACATTC,7010
GAAATTTGATCCCGACTGATGATGATTTTCTTCTAG,554
CTACCTTCCTTTTACCTCGTGAAAGGACTATATTTC,590
CTACCCCTATCCCGTCATCAGAGGGGCTAAAGATTC,490
CTAAAACTTTGAGCTCTGATGACTTTGCAATGATTC,498
GAAGTTCGAAAATAGCACGTGCCTATTGATCTTTAG,12700
CTACCATACCATCATCATCACTTTACACATACTTTC,570
CTATATTTATTTATACGTGTGATTTCGTCTTGCTTC,559
GAACATATCATCCACCAGATTATCACGCTATAATAG,609
